Measurements from different studies.
Observed: metabolic stability

Compound | species | sample | concentration | pH | half-life [min]
CC1(CCCCCCCCCCOCCCOP(=O)(O)CO[C@H](CO)Cn2ccc(N)nc2=O)COC1 | rat | hepatocytes | 1 µM | – | 73.8
CN(C)C(=O)c1cncc(N2Cc3cn(Cc4ccc(F)cc4)nc3C2)n1 | rat | liver microsomes | – | – | 309
Nc1ccn(C[C@@H](CO)OCP(=O)(O)OCCCS(=O)(=O)CCCCCCCCCCCCC2CCC2)c(=O)n1 | rat | hepatocytes | 1 µM | – | 94.3
Cn1c(=O)c2c(nc(OC3CCN(C(=O)C4CC4)CC3)n2Cc2ccccc2F)n(C)c1=O | rat | liver microsomes | – | – | 24
O=C1C2=C(CCN(Cc3ccccc3)C2)N2CCN=C2N1Cc1ccc(C(F)(F)F)cc1 | rat | liver microsomes | – | – | 7.12
CSCC[C@H](NC(=O)[C@H](CC(C)C)NC(=O)[C@H](Cc1c[nH]cn1)NC(=O)CNC(=O)[C@@H](NC(=O)[C@H](C)NC(=O)[C@H](Cc1c[nH]c2ccccc12)NC(=O)[C@H](CCC(N)=O)NC(=O)CCCCCN)C(C)C)C(N)=O | male Sprague-Dawley rat | hepatocytes | 10 µg/mL | – | 4
Nc1nc(Cl)nc2c1ncn2Cc1cc(OCC(F)F)cc(-c2cccnc2F)c1 | rat | liver microsomes | – | – | 27
CC1(CCCCCCCCCCCCOCCCOP(=O)(O)CO[C@H](CO)Cn2ccc(N)nc2=O)COC1 | rat | hepatocytes | 1 µM | – | 22.9
COc1cc(-c2cnc3nc2NCCCNS(=O)(=O)c2cccc(c2)N3)ccc1F | Sprague-Dawley rat | liver microsomes | 10 µM | pH 7.4 | 396
Cc1cccc(Cn2c(OC3CCN(C(=O)C4CC4)CC3)nc3c2c(=O)n(C)c(=O)n3C)c1F | rat | liver microsomes | – | – | 4
Brc1ccc(Nc2nc(NN=Cc3c[nH]c4ccccc34)nc(N3CCOCC3)n2)cc1 | rat | liver microsomes | 0.1 µM | pH 7.4 | 63.3
CC(C)CCn1c(CN2CCCN(C(=O)C3CC3)CC2)nc2c1c(=O)n(C)c(=O)n2C | rat | liver microsomes | – | – | 5
C#Cc1cccc(Nc2ncnc3cc(OC)c(OCCCN4CCOCC4)cc23)c1 | rat | liver microsomes | 1 µM | pH 7.4 | 11.8
CCOC(=O)N1CCN(Cc2nc3c(c(=O)n(C)c(=O)n3C)n2CCC(C)C)CC1 | rat | liver microsomes | – | – | 23
CN(C)C(=O)c1ccnc(N2Cc3cn(Cc4ccc(F)cc4F)nc3C2)n1 | rat | liver microsomes | – | – | 451
COc1ccc(S(=O)(=O)N(C)/N=C/c2ccc(C#N)cc2)cc1OC | male Wistar rat | liver microsomes | 10 µM | pH 7.4 | 126
CCOC(=O)N1CCC(Oc2nc3c(c(=O)n(C)c(=O)n3C)n2Cc2cccc(C)c2)CC1 | rat | liver microsomes | – | – | 2
COC[C@H](NC(=O)[C@H](CCc1ccccc1)NC(=O)CN1CCOCC1)C(=O)N[C@H](/C=C/S(C)(=O)=O)CC(C)C | rat | hepatocytes | – | – | 75
Cc1cccc(Cn2c(CN3CCN(C(=O)C4CC4)CC3)nc3c2c(=O)n(C)c(=O)n3C)c1 | rat | liver microsomes | – | – | 6
CN1C(=O)C2(Nc3ccccc3C(=O)N2Cc2ccccc2)c2cc(Br)ccc21 (centres unmarked) | rat | hepatocytes | – | – | < 2.3
